{"data": "Experimental data pooled from the literature", "target": "Serine/threonine-protein kinase PAK 6 (PAK6, Homo sapiens, UniProt Q9NQU5)", "note": "Each line is one published result; not all experiments were run side by side."}
{"SMILES": "NC(=O)[C@@H](O)C[C@H]1CCc2sc3ncnc(O[C@H]4CC[C@H](N5CCOCC5)CC4)c3c21", "assay": "enzyme activity, inhibitor", "conditions": "10 µM", "measurement": "inhibition", "value": "11%"}
{"SMILES": "CNC1C[S+]2CC[S+]3CC[S+](C1)[Ru-4]321([N]=C=S)[n]2c3ccc(OC)cc3c3c4c(c5cc(F)c[n+]1c5c32)C(=O)NC4=O (stereo not shown)", "assay": "KinomeScan", "conditions": "0.1 µM", "scale": "relative to: untreated", "measurement": "remaining binding", "value": "94%"}
{"SMILES": "Cc1ccc(-c2c(/C=C(\\C#N)C(=O)NC(C)C)n(CCCO)c3ncnc(N)c23)cc1", "assay": "cell-free assay, competition with immobilised ligand", "conditions": "1 µM", "measurement": "remaining binding", "value": "100%"}
{"SMILES": "COc1ccc(C(=O)/C=C/c2ccccc2-c2c[nH]c3ccc(C#N)cc23)c(O)c1", "assay": "enzyme activity, inhibitor", "conditions": "20 µM", "measurement": "inhibition", "value": "-7%"}
{"SMILES": "CN1CCN(Cc2ccc(-c3ccc(CO[C@H]4CCC[C@@H]4NC(=O)c4cc(-c5cnn(C)c5)cnc4N)cc3)cc2)CC1", "assay": "enzyme activity, inhibitor", "conditions": "0.1 µM", "measurement": "inhibition", "value": "8%"}
{"SMILES": "C=CC(=O)Nc1cccc(-c2cnc3[nH]cc(C(=O)NC(C)(C)C)c3n2)c1", "assay": "enzyme activity, inhibitor", "conditions": "0.1 µM", "measurement": "inhibition", "value": "3%"}
{"SMILES": "O=C(Cc1ccc(OCc2ccccc2)cc1)NC1(C(=O)O)CCN(C(=O)c2ccc(-c3cccc(Cl)c3)cc2)CC1", "assay": "enzyme activity, inhibitor", "conditions": "10 µM", "measurement": "activity vs control", "value": "110%"}
{"SMILES": "COc1ccc(NC(=O)Nc2ccc3c(c2)C(=O)N(C(C)CO)CC(C)C(CN(C)Cc2ccc4c(c2)OCO4)O3)cc1 (stereo not shown)", "assay": "kinase activity, KinaseProfiler", "conditions": "0.03 µM, species human", "scale": "relative to: control", "measurement": "remaining activity", "value": "100%"}
{"SMILES": "Nc1nc(Nc2ccccc2)sc1C(=O)c1ccccc1", "assay": "enzyme activity, inhibitor", "conditions": "10 µM", "measurement": "remaining activity", "value": "52%"}
{"SMILES": "CCn1cc(C(=O)O)c(=O)c2c(N)c(F)c(NC3CCCCC3)cc21", "assay": "kinase activity", "conditions": "0.1 µM, added: ATP at Km", "measurement": "inhibition", "value": "-30%"}
{"SMILES": "Nc1ncc(-c2cc(-c3cnn(CC(F)(F)F)c3)ncc2F)nc1C(=O)NC1CNCC(F)C1 (stereo not shown)", "assay": "enzyme activity", "conditions": "1 µM", "scale": "relative to: DMSO control", "measurement": "remaining activity", "value": "92.2%"}
{"SMILES": "Cc1cccc(-c2ccc3nc(NC(=O)C4CCCO4)nn3c2)c1 (stereo not shown)", "assay": "enzyme activity, Dundee kinase panel", "conditions": "10 µM", "measurement": "remaining activity", "value": "84%"}
{"SMILES": "Cc1cccc(O[C@H]2CCC[C@@H](C(C)CNCc3ccncc3)C2)c1 (relative stereo)", "assay": "enzyme activity, inhibitor", "conditions": "1 µM", "measurement": "inhibition", "value": "-3%"}
{"SMILES": "C=CC(=O)N1CCc2ccc(-n3c(=O)ccc4cnc5ccc(-c6cnn(C)c6)cc5c43)cc21", "assay": "KINOMEscan", "conditions": "1 µM", "scale": "relative to: DMSO control", "measurement": "remaining binding", "value": "100%"}
{"SMILES": "Cc1cccc(-c2ccc3nc(NC(=O)C4CCCCC4)nn3c2)c1", "assay": "enzyme activity, Dundee kinase panel", "conditions": "10 µM", "measurement": "remaining activity", "value": "76%"}
{"SMILES": "Nc1ncc2c(n1)-c1c([nH]c3ccc(C4=CCOCC4)cc13)CCC2", "assay": "binding, competition with immobilised ligand", "conditions": "1 µM", "measurement": "remaining binding", "value": "60%"}
{"SMILES": "COc1cc(Nc2nc(C)cc(-c3cnn4nc(OC)ccc34)n2)cc(C(F)(F)F)c1", "assay": "inhibitor", "conditions": "1 µM", "scale": "relative to: control", "measurement": "remaining activity", "value": "82%"}
{"SMILES": "COc1c(OCCCN2CCOCC2)ccc2c1N=C(NC(=O)c1cnc(N)nc1)N1CCN=C21", "assay": "kinase activity, inhibitor", "conditions": "1 µM", "scale": "relative to: untreated control", "measurement": "remaining activity", "value": "108%"}
{"SMILES": "C=CC(=O)N1Cc2nc(-c3cc(-c4cc(Cl)cnc4Cl)c(F)cc3F)n(-c3ccncn3)c2C1", "assay": "cell-free assay, inhibitor", "conditions": "1 µM", "measurement": "inhibition", "value": "5.1%"}
